Published values collected from several papers.
Each line is one published result; not all experiments were run side by side. ± gives the spread as reported.
Cell line: A549

Compound | assay | setting | how to read | endpoint | result
CCN1CCC2(CC1)C/C(=N\NC(=O)Nc1ccccc1)c1ccccc1O2 | annexin V-FITC/PI | concentration not given, 24 h, Total apoptosis |  | apoptotic cells | 39.7%
Cc1cccc(O)c1C(=O)OCC1(O)C(Nc2cccc3ccccc23)C(N)C(NC(=O)N(C)C)(C(C)O)C1(C)O (centres unmarked) | cell growth or viability |  |  | EC50 | 2210 nM
C=C(CC)C(=O)c1ccc(OCC(=O)NCCNC(=O)COc2ccc(C(=O)C(=C)CC)c(Cl)c2Cl)c(Cl)c1Cl | cell growth, CCK-8 | 1.0 µM, with: cisplatin |  | sensitisation to cisplatin | ~7 fold
CCNc1cc2c(cc1C)C1(c3cc(C)c(NCC)cc3O2)c2ccccc2C(=O)N1N=Cc1c[c-]c(-c2ccccn2)cc1.Cc1c(C)c(-c2ccc(-c3ccccc3)cc2)[c-](C)c1C.[Cl-].[Ir+3] | DCFH-DA flow cytometry | 0.5 × IC50, 24 h | reference: untreated | ROS level | 2.5 fold
Cc1cccc(-c2cccc(C)n2)n1.[Cl-].[Cl-].[Ru+2].c1ccc(-c2ccccn2)nc1.c1ccc(-c2ccccn2)nc1 | oxygen consumption rate, Seahorse extracellular flux | 1 h, with: indigo light 450 nm, 29.1 J/cm2 |  | lowest concentration inhibiting OCR | > 25 µM
[Cl-].[Cl-].[Ru+2].c1ccc(-c2ccccn2)nc1.c1ccc(-c2ccccn2)nc1.c1cnc2c(c1)ccc1cccnc12 |  | 3 µM |  | maximum intracellular concentration | ~40 µM
CCOC(=O)C1=C(C)NC(=O)N[C@@H]1/C=C/c1ccc(OC)cc1 |  | 7 and 15 µM, 24 h | reference: vehicle DMSO | colony formation | decreased
CC(=O)O[C@@H]1CC[C@@]2(C)[C@@H](CC[C@]3(C)[C@@H]2C(=O)C=C2[C@@H]4[C@@H](C)[C@H](C)CC[C@]4(C)CC[C@]23C)[C@@]1(C)C(=O)NCCNC(=O)CCCCCCCCCC[P+](c1ccccc1)(c1ccccc1)c1ccccc1 | MTT |  | reference: AKBA over compound IC50, higher = more potent than AKBA | antiproliferative potency ratio | ≤ 20 fold
COc1ccc(/C=C/C2=[N+]3C(=C(CO)c4c(C)cc(/C=C/c5ccc(OC)cc5)n4[B-]3(C)C)C(C)=C2)cc1 | resazurin | with: 645 nm light | reference: dark over light IC50 | phototoxicity index | 67 ± 26
CCCC1OC2CC3C4CCC5=CC(=O)C=CC5(C)C4C(O)CC3(C)C2(C(=O)COC(=O)C(N)Cc2ccccc2)O1 (centres unmarked) | IL-6 release, inhibitor, ELISA | 1 nM, 24 h, LPS-stimulated |  | inhibition | > 50%
Cn1c2ccc(Cl)c(=O)c-2nc2ccccc21 | cytotoxicity, WST-8 |  | reference: IC50 MRC5 over IC50 A549 | selectivity index | 5.8
COc1ccc([C@@H]2CC(=O)c3c(O)cc(O[C@@H]4O[C@H](CO[C@@H]5O[C@@H](C)[C@H](O)[C@@H](O)[C@H]5O)[C@@H](O[C@H]5O[C@H](CO)[C@@H](O)[C@H](O)[C@H]5O)[C@H](O)[C@H]4O)cc3O2)cc1O | trypan blue exclusion | 150 µg/mL, 24 h |  | cell count | 6250 ± 711
[Cl-].[Cl-].[Ru+2].c1ccc2nc(-c3ccc4ccccc4n3)ccc2c1.c1cnc2c(c1)ccc1cccnc12.c1cnc2c(c1)ccc1cccnc12 | Seahorse Mito Stress Test | concentration not given, with: 450 nm light 29.1 J/cm2 | reference: vehicle | maximal respiration reduction | < 30%
CC(=O)OC[C@H]1O[C@@H](Sc2sc(C(=O)c3ccc(Br)cc3)c(N)c2-c2nc3ccccc3s2)[C@H](OC(C)=O)[C@@H](OC(C)=O)[C@@H]1OC(C)=O | SRB | 10 µM, 48 h |  | growth | 71.5%
S=c1n(-c2ccccc2)c2c3ccccc3nc3[n+]2[n]1[Ir-3]12([S]3)([c]3ccccc3-c3cccc[n+]31)[c]1ccccc1-c1cccc[n+]12 |  |  | reference: IC50 dark over IC50 light | phototoxicity index | > 1850
FC(F)(F)c1ccnc(-c2cc(C(F)(F)F)ccn2)c1.FC(F)(F)c1ccnc(-c2cc(C(F)(F)F)ccn2)c1.[Cl-].[Cl-].[Ru+2].c1csc(-c2nc3c4cccnc4c4ncccc4c3[nH]2)c1 | cell viability | 100 J/cm2 light, normoxia, with: visible light 400-700 nm | reference: dark over light EC50 | phototherapeutic index | 7
CC12COC(c3ccccc3)OC1CCC1(C)C(C=CC3=CCOC3=O)C(CO)=CCC21 (centres unmarked) | cell growth or viability, MTT | 20 µM, 48 h |  | inhibition | 32.8%

Repeated from above:
Compound | assay | setting | how to read | endpoint | result
COc1ccc([C@@H]2CC(=O)c3c(O)cc(O[C@@H]4O[C@H](CO[C@@H]5O[C@@H](C)[C@H](O)[C@@H](O)[C@H]5O)[C@@H](O[C@H]5O[C@H](CO)[C@@H](O)[C@H](O)[C@H]5O)[C@H](O)[C@H]4O)cc3O2)cc1O | trypan blue exclusion | 150 µg/mL, 24 h |  | cell count | 6250 ± 711
[Cl-].[Cl-].[Ru+2].c1ccc2nc(-c3ccc4ccccc4n3)ccc2c1.c1cnc2c(c1)ccc1cccnc12.c1cnc2c(c1)ccc1cccnc12 | Seahorse Mito Stress Test | concentration not given, with: 450 nm light 29.1 J/cm2 | reference: vehicle | maximal respiration reduction | < 30%
